Results collected from several papers.
Compare with care: the assays were run in different laboratories. Values joined by “and” are separate records of one study, mostly repeats; a detail may differ. Numbers after ± are the reported error.
CYP2B6: Cytochrome P450 2B6 (CYP2B6, Homo sapiens, UniProt P20813)
EGLN1: Egl nine homolog 1 (EGLN1, Homo sapiens, UniProt Q9GZT9)
CTSL: Procathepsin L (CTSL, Homo sapiens, UniProt P07711)
PDGFRB: Platelet-derived growth factor receptor beta (PDGFRB, Homo sapiens, UniProt P09619)

Compound | target | assay | test system | setting | IC50
CNc1ncc2cc(-c3c(F)ccc(NS(=O)(=O)c4cc(Cl)ccc4Cl)c3F)ccc2n1 | eIF-2-alpha kinase GCN2 (EIF2AK4, Homo sapiens, UniProt Q9P2K8) | kinase activity, inhibitor | – | – | 0.015 µM
O=C1c2oc3cc(O)c(O)cc3c2C(=O)c2oc3cc(O)c(O)cc3c21 | CYP2B6 | enzyme activity, inhibitor | human, liver microsomes | 1 h, pH 7.4 | 8.5 µM
O=C(O)[C@H](Cc1ccc2ccccc2c1)NC(=O)C1(c2ccc3ccccc3c2)CCN(S(=O)(=O)c2ccc([N+](=O)[O-])cc2)CC1 | Gag-Pol polyprotein, integrase (gag-pol, Human immunodeficiency virus 1, UniProt P12497) | integrase catalytic activity, inhibitor, HTRF | HIV-1 | with: LEDGF/p75 | 16 µM and 17 µM
CC(C)(C)c1ccc(C(=O)Oc2ccc3c(-c4ccccc4C(=O)O)c4ccc(=O)cc-4oc3c2)cc1 | Alpha-ketoglutarate-dependent dioxygenase FTO (FTO, Homo sapiens, UniProt Q9C0B1) | enzyme activity, inhibitor, mass spectrometry | – | – | 71.7 µM
CC1OC(Oc2c(-c3ccc(O)c(O)c3)oc3cc(O)cc(O)c3c2=O)C(O)C(O)C1O (stereo not drawn) | Alpha-glucosidase MAL12 (MAL12, Saccharomyces cerevisiae S288c, UniProt P53341) | enzyme activity, inhibitor, absorbance | – | – | > 100 µM
O=C(Nc1ccc2nc(NC(=O)c3ccco3)sc2c1)c1ccco1 | Nucleoside transporter 1 (Plasmodium vivax, UniProt A5K8B0) | [3H]adenosine uptake | target-expressing yeast | – | 0.0018 ± 0.0008 µM
CC(C)(C)NCCCNC(=O)c1ccnc(C(F)(F)F)c1 | Chromobox protein homolog 7 (Homo sapiens, UniProt O95931) | methyl-lysine reader binding, inhibitor, AlphaScreen | – | – | > 100 µM
CC1CC(=O)NN=C1c1ccc(NC(=O)N2Cc3ccncc3C2)cc1 (stereo not drawn) | Nicotinamide phosphoribosyltransferase (NAMPT, Homo sapiens, UniProt P43490) | enzyme activity, inhibitor | – | – | 0.0016 µM
CC(=O)C12NC(C)(C)CC1(C)C(=O)C1=C2c2c(c3c4n2C(C)(C)CC2=C4C4(CC(C)(C)NC(C)(C4)C2=O)CC3(C)C)C(=O)C(C)(C)N1 (single isomer, unassigned; (+)) | Potassium voltage-gated channel subfamily A member 3 (KCNA3, Homo sapiens, UniProt P22001) | ion current, inhibitor | – | – | 2.2 µM and 4.2 µM
O=C(O)CCC(=O)NNC(=O)c1cnc2ccccc2c1 | EGLN1 | inhibitor, AlphaScreen | – | bimodal curve, rough estimate, with: 2 µM 2-oxoglutarate | 21 µM
COC(=O)C1=CNC=C(C(=O)OC)C1c1ccc(F)c(C(F)(F)F)c1 | Intermediate conductance calcium-activated potassium channel protein 4 (KCNN4, Homo sapiens, UniProt O15554, S314P) | inside-out patch clamp | – | gain-of-function mutant, with: 1 µM free Ca2+ | < 0.02 µM
O=S(=O)(Nc1ccc(Oc2ncccc2-c2ccnc(N[C@H]3CCCNC3)n2)cc1F)c1ccccc1Cl | Serine/threonine-protein kinase/endoribonuclease IRE2, RNase domain (ERN2, Homo sapiens, UniProt Q76MJ5) | RNase activity, inhibitor | – | with: XBP1 mini-substrate | 0.12 ± 0.04 µM
CN(C(=O)c1ccn2ncc(-c3ccc(C(N)=O)cc3)c2c1)c1ccc(C#N)cn1 | Alpha-2C adrenergic receptor (ADRA2C, Homo sapiens, UniProt P18825) | ligand displacement | – | – | > 30 µM
CC[C@H](C)[C@H](NC(=O)[C@H](CC(C)C)NC(=O)[C@H](CCCNC(=N)N)NC(=O)c1ccc(CN2CCNCC2)cc1)C(=O)N[C@@H](Cc1ccccc1)C(N)=O | Cyclin-A2, with CDK2 (CCNA2, Homo sapiens, UniProt P20248) | binding to cyclin groove, inhibitor, fluorescence polarization competition | – | – | 12.9 µM
COc1ccc(-c2cc(C(F)(F)F)nc(S(=O)(=O)CCC(=O)Nc3ccc(C)cc3)n2)cc1 | Bifunctional 3'-5' exonuclease/ATP-dependent helicase WRN (WRN, Homo sapiens, UniProt Q14191) | ATPase activity, inhibitor, ADP detection | – | – | 2.7 µM
N#Cc1cnc2sc(C(=O)O)cc2c1N1CCc2[nH]nc(C(=O)N[C@@H](CC(=O)NCCOCCN3CCOCC3)c3cccc(Br)c3)c2C1 | Interleukin-1 receptor-like 2 (IL1RL2, Homo sapiens, UniProt Q9HB29) | antagonist, SEAP reporter | HEK-Blue IL-36R | 6 h, with: 0.01 ng/mL IL-36γ | 6.78 µM
N#Cc1nc(N2CCOCC2)nc(N(CCC2CCCCC2)Cc2ccc(F)cc2)n1 | CTSL | enzyme activity, inhibitor, fluorescence | – | – | 87.5 µM
COc1cc2nccc(Oc3ccc(NC(=S)NC4CC4)nc3)c2cc1C(N)=O | PDGFRB | – | – | – | 3.81 µM
CC(C)[C@H](NC(=O)[C@H](C)NC(=O)[C@H](Cc1c[nH]c2ccccc12)NC(=O)[C@H](Cc1c[nH]cn1)NC(=O)[C@H](N)Cc1ccc(O)cc1)C(=O)N[C@H](C)C(=O)N[C@@H](Cc1c[nH]cn1)C(=O)N1CCC[C@@H]1CN[C@@H](Cc1ccccc1)C(N)=O | Neuromedin-B receptor (NMBR, Homo sapiens, UniProt P28336) | inositol phosphate generation, antagonist | Balb 3T3 expressing NMBR | with: neuromedin B 1 nM | > 10 µM
CCOC(=O)/C=C/CN(CCCCN1c2ccccc2CCc2ccc(Cl)cc21)C(C)C | E3 ubiquitin-protein ligase NEDD4, HECT domain (Homo sapiens, UniProt P46934) | ubiquitination, inhibitor, TR-FRET | – | 1 h preincubation | 1.83 µM
O=c1nc(NO)ccn1[C@@H]1O[C@H](CO)[C@@H](O)[C@H]1O | CYP2B6 | – | – | 20 min, pH 7.4 | > 100 µM

Compound | target | assay | test system | setting | IC50
N#Cc1nc(N2CCOCC2)nc(N(Cc2ccc(F)cc2)CC2CCCC2)n1 | CTSL | enzyme activity, inhibitor, fluorescence | – | – | 0.06 µM
Cc1cccc(Cn2c(OC3CCN(C(=O)C4CC4)CC3)nc3c2c(=O)n(C)c(=O)n3C)c1F | Aldehyde dehydrogenase 1A1 (ALDH1A1, Homo sapiens, UniProt P00352) | – | – | – | 0.131 ± 0.06 µM
CC(C)Oc1cc(NC(=O)[C@H](Cc2ccccc2)NC(=O)c2ccc(N)c(OCc3ccccc3)c2)ccc1C(=O)NCC(=O)O | Induced myeloid leukemia cell differentiation protein Mcl-1 (MCL1, Homo sapiens, UniProt Q07820) | fluorescence anisotropy competition | – | pH 7.50, with: FITC-NOXA B peptide | > 100 µM
COc1cc2nccc(Oc3ccc4sc(NCC(C)C)nc4c3)c2cc1C(N)=O | PDGFRB | – | – | – | > 10 µM
CCC(=O)N(C)c1ccc(Cl)c(Cl)c1 | CYP2B6 | enzyme activity, inhibitor | human, liver microsomes | 10 min | > 25 µM
Cc1cc(/N=N/c2ccc(/N=N/c3ccc(O)c(C(=O)O)c3)cc2)c(N)cc1N | PH domain leucine-rich repeat-containing protein phosphatase 2 (Homo sapiens, UniProt Q6ZVD8) | enzyme activity, inhibitor, absorbance | – | – | 4 µM
CC(C)S(=O)(=O)c1cccc(O)c(=O)c1O | Ribonuclease H1 (Homo sapiens, UniProt O60930) | enzyme activity, inhibitor | – | – | 125 µM
CC(C)CCN(Cc1ccccn1)c1nc(C#N)nc(N2CCOCC2)n1 | CTSL | enzyme activity, inhibitor, fluorescence | – | – | 0.033 µM
CC(C)[C@H](NC(=O)[C@@H]1CCCN1C(=O)[C@H](CCCNC(=N)N)NC(=O)[C@H](CS)NC(=O)[C@H](Cc1c[nH]c2ccccc12)NC(=O)[C@H](CCCNC(=N)N)NC(=O)[C@@H](Cc1ccccc1)NC(=O)[C@H](Cc1c[nH]cn1)NC(=O)[C@H](CCC(=O)O)NC(=O)[C@H](CS)NC(=O)[C@H](CS)NC(=O)[C@H](CCCCN)NC(=O)[C@@H]1CC(=O)N[C@@H](CCCNC(=N)N)C(=O)NCC(=O)N[C@@H](CC(=O)O)C(=O)N[C@H](Cc2ccc(O)cc2)C(=O)N1)C(N)=O | Integrin alpha-V/beta-3 (Homo sapiens, UniProt P05106+P06756) | ligand displacement, radioligand | – | – | 0.403 µM
NC1CCC(Nc2nccc(-c3cccnc3Oc3ccc(NS(=O)(=O)c4ccccc4Cl)c4ccccc34)n2)CC1 (stereo not drawn) | Serine/threonine-protein kinase/endoribonuclease IRE1, RNase domain (ERN1, Homo sapiens, UniProt O75460) | RNase activity, inhibitor | – | with: XBP1 mini-substrate | 0.022 ± 0.009 µM
COc1cc2ncnc(Oc3ccc(Nc4nccc5[nH]cc(-c6ccccc6F)c(=O)c45)cc3F)c2cc1OC | Hepatocyte growth factor receptor (MET, Homo sapiens, UniProt P08581) | HGF-induced autophosphorylation, inhibitor, ELISA | MKN-45 | – | 0.194 µM
CC1(CN)CCN(c2cnc(Sc3cccc(Cl)c3Cl)c(N)n2)CC1 | Tyrosine-protein phosphatase non-receptor type 11 (PTPN11, Homo sapiens, UniProt Q06124, E76K) | enzyme activity, inhibitor, fluorescence | – | – | 0.179 µM
COc1cc2nccc(Oc3ccc(NC(=S)NC4CC=C(F)CC4)c(Cl)c3)c2cc1C(N)=O (stereo not drawn) | PDGFRB | – | – | – | 0.4 µM
O=C1C2=C(Nc3ccccc3SC2C2CC2)c2ccccc21 (racemic) | Cytochrome b (MT-CYB, Homo sapiens, UniProt P00156) | enzyme activity, inhibitor | – | – | 1.09 µM
O=C1C2CC3CC1CC(C(=O)N1CCN(c4ccc([N+](=O)[O-])c5ncccc45)CC1)(C3)C2 | Toll-like receptor 7 (TLR7, Homo sapiens, UniProt Q9NYK1) | reporter gene | – | – | 0.23 µM
O=C(O)CCCC(=O)NNC(=O)c1cc2ccccc2cn1 | EGLN1 | inhibitor, AlphaScreen | – | bimodal curve, rough estimate, with: 2 µM 2-oxoglutarate | 24.6 µM
COc1cc2nccc(Oc3ccc(NC(=S)NC4CC4)c(C(F)(F)F)c3)c2cc1C(N)=O | Vascular endothelial growth factor receptor 2 (KDR, Homo sapiens, UniProt P35968) | – | – | – | 0.0162 µM
O=c1c2ccccc2[s+]([O-])n1-c1ccccc1 (stereo not drawn) | Histone deacetylase 5 (HDAC5, Homo sapiens, UniProt Q9UQL6) | enzyme activity, inhibitor | – | – | > 10 µM
CCOC(=O)c1c(N)sc2c1CCN(Cc1ccccc1)C2 | Carbamate kinase (Giardia intestinalis, UniProt A8BB85) | enzyme activity, ATP luminescence | – | – | 10.3 µM
Cc1cccc(C2CC(=O)N2S(=O)(=O)c2cccc(Cl)c2)c1 (stereo not drawn) | Rhomboid protease AarA (Providencia stuartii, UniProt P46116) | enzyme activity, inhibitor, fluorescence | – | – | < 20 µM
COc1cc2nccc(Oc3ccc(NC(=S)NCc4cccnc4)c(Cl)c3)c2cc1C(N)=O | PDGFRB | – | – | – | 0.037 µM

For quick reference, copied from above:
Compound | target | assay | test system | setting | IC50
O=c1c2ccccc2[s+]([O-])n1-c1ccccc1 (stereo not drawn) | Histone deacetylase 5 (HDAC5, Homo sapiens, UniProt Q9UQL6) | enzyme activity, inhibitor | – | – | > 10 µM
CC(C)S(=O)(=O)c1cccc(O)c(=O)c1O | Ribonuclease H1 (Homo sapiens, UniProt O60930) | enzyme activity, inhibitor | – | – | 125 µM
N#Cc1nc(N2CCOCC2)nc(N(CCC2CCCCC2)Cc2ccc(F)cc2)n1 | CTSL | enzyme activity, inhibitor, fluorescence | – | – | 87.5 µM
